# Published values gathered from unrelated publications.
# Protocols differ between the studies behind these lines. Values joined by “and” are separate records of one study, mostly repeats; a detail may differ. ± marks the error that the study gave.
# POLB I260M: DNA polymerase beta (POLB, Homo sapiens, UniProt P06746, I260M)
# Eif4e: Eukaryotic translation initiation factor 4E (Eif4e, Mus musculus, UniProt P63073)
# Chain of UniProt P63073 (whole entry, looked up): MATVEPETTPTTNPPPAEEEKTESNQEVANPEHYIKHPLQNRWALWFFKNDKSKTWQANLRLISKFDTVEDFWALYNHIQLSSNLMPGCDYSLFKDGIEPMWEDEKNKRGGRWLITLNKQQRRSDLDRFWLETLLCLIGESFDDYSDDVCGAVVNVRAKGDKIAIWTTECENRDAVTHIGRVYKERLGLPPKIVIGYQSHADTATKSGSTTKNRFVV
# Chain of UniProt P53341 (whole entry, looked up): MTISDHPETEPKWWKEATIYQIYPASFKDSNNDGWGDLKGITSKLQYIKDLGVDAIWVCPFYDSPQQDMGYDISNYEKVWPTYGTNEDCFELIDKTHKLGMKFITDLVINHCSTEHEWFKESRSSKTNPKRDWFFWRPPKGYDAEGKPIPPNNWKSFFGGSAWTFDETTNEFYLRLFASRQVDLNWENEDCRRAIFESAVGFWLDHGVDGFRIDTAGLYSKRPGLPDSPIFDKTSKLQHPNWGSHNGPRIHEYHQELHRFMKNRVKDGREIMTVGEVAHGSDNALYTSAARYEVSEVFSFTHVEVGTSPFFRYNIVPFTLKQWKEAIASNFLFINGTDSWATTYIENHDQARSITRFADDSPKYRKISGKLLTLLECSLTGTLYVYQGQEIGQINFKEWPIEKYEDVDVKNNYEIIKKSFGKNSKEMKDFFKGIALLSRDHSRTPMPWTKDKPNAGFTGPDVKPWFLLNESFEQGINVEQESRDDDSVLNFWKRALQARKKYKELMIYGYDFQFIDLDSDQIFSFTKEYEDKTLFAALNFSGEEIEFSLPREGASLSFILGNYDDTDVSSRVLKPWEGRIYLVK
# Chain of UniProt A0A109QYD3 (whole entry, unmodified, looked up): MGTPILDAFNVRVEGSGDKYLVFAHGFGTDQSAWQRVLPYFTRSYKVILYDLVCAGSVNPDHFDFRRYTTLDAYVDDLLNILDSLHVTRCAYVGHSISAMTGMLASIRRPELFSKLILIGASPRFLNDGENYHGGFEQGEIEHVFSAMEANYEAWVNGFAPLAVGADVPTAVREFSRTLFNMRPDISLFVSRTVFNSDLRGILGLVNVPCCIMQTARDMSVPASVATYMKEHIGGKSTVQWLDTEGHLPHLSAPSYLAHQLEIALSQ
# Chain of UniProt P20248 (whole entry, looked up): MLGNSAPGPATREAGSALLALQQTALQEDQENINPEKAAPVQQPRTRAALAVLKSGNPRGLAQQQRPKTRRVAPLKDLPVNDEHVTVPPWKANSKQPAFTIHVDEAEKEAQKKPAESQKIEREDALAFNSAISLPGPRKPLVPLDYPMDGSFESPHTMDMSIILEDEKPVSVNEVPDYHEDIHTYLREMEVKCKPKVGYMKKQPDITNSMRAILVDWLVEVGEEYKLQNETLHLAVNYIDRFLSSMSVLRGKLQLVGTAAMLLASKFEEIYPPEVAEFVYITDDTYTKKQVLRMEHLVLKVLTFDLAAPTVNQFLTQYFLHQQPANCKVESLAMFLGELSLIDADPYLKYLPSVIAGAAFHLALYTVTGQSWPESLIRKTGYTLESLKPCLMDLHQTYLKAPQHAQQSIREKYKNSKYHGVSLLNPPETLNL
# Chain of UniProt P10145 (whole entry, looked up): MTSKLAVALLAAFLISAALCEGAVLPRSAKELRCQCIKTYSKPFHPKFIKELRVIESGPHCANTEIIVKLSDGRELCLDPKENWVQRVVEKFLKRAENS
# Chain of UniProt P38169 (1-394, unmodified, looked up): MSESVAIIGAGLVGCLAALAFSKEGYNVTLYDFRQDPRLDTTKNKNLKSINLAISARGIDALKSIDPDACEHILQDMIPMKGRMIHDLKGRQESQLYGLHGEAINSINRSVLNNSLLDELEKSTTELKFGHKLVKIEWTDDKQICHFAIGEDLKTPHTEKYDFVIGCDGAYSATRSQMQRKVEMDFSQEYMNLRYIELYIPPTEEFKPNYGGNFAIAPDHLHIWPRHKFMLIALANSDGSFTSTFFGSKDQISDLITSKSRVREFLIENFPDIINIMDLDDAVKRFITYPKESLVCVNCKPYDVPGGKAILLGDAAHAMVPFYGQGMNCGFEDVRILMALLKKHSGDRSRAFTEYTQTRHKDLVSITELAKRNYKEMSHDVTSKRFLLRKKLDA
# Chain of UniProt O00214 (whole entry, looked up): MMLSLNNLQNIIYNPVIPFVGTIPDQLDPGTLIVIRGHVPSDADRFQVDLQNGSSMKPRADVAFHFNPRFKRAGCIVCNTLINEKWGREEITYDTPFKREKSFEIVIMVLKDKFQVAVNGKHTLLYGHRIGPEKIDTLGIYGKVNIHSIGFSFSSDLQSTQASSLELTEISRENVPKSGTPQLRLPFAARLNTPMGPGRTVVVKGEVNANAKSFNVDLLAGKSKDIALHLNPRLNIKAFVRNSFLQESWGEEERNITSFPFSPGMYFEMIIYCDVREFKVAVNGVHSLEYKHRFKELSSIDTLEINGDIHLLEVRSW
SMILES,target,assay,test system,setting,Kd
CC[C@H](C)[C@H](NC(=O)[C@@H]1CCCN1C(=O)[C@H](Cc1c[nH]cn1)NC(=O)[C@@H](NC(=O)[C@H](Cc1ccc(O)c(I)c1)NC(=O)[C@@H](NC(=O)[C@H](CCCNC(=N)N)NC(=O)CNC)C(C)C)[C@@H](C)CC)C(=O)O [iodine-125 labelled],"angiotensin II receptor type 1, rat","binding, saturation radioligand binding","female rat, estrus, liver membranes",,0.00042 µM and 0.00093 µM
Nc1nc2c(ncn2[C@H]2C[C@H](O)[C@@H](COP(=O)(O)OP(=O)(O)C(Cl)(Cl)P(=O)(O)O)O2)c(=O)[nH]1,POLB I260M,"nucleotide binding, substrate, single turnover kinetics",,"37 °C, dG misincorporation opposite A",277 ± 70 µM
CC[C@H](C)[C@@H]1NC(=O)[C@H](C)NC(=O)[C@H](C)NC(=O)[C@H]([C@@H](C)O)NC(=O)[C@H](Cc2ccccc2)NC(=O)[C@@H]2CSSC[C@@H]3NC(=O)[C@H](C(C)C)NC(=O)[C@H](CCCCN)NC(=O)[C@H](CO)NC(=O)[C@H](CCCCN)NC(=O)[C@@H]4CSSC[C@H](NC(=O)[C@H](CO)NC(=O)[C@H](CCC(=O)O)NC(=O)[C@H](C)NC(=O)[C@H](CSSC[C@H](NC(=O)CNC1=O)C(=O)N[C@@H](CO)C(=O)N4)NC(=O)[C@@H]1CCCN1C(=O)[C@H](Cc1ccccc1)NC(=O)CNC(=O)[C@H](CC(N)=O)NC(=O)[C@H](CCCCN)NC(=O)[C@H](Cc1ccc(O)cc1)NC3=O)C(=O)N[C@@H](C(C)C)C(=O)N[C@@H](Cc1ccc(O)cc1)C(=O)N[C@@H](CC(C)C)C(=O)N1CCC[C@H]1C(=O)N2,POPC/POPE lipid membrane,"membrane binding, surface plasmon resonance",POPC/POPE 80:20 vesicles,pH 7.4,4.77 ± 0.16 µM
CC1=C[C@@H](O/C=C2/C(=O)O[C@H]3c4ccccc4C[C@@H]23)OC1=O,"RMS3 (Lathyrus oleraceus, UniProt A0A109QYD3, S96C)","binding, fluorescence",,,676 µM
C=C1C(=O)O[C@@H]2[C@H]3C(CO)=CC(=O)C3=C(C)C[C@H](OC(=O)Cc3ccc(O)cc3)[C@@H]12,"MAL12 (Saccharomyces cerevisiae S288c, UniProt P53341)","binding, fluorescence quenching",,"30 min, 298 K",155 µM
C[n+]1cn([C@@H]2O[C@H](COP(=O)(O)OP(=O)(O)CP(=O)(O)O)[C@@H](O)[C@H]2O)c2nc(N)nc([O-])c21,"Eukaryotic translation initiation factor 4E, residues 28-217 (Eif4e, Mus musculus, UniProt P63073)","binding, fluorescence quenching titration",,"pH 7.2, 20 °C",0.0513 µM
Nc1nc2c(ncn2C2CC(O)C(COP(=O)(O)OP(=O)(O)C(Cl)P(=O)(O)O)O2)c(=O)[nH]1 (mixture of isomers),POLB I260M,"nucleotide binding, substrate, single turnover kinetics",,"37 °C, dG misincorporation opposite A",681 ± 304 µM
COc1ccc(Cc2cc3c4c(c2)O[C@H](CO)[C@H](O)[C@@H]4OC3)cc1,"Galectin-8 (LGALS8, Homo sapiens, UniProt O00214)","cell-free assay, FP",,,640 µM
C=CC(=O)Nc1cc(Nc2nccc(-n3ccc4nc(OC)ccc43)n2)c(OC)cc1N(C)CCN(C)C,"EGFR (Homo sapiens, UniProt P00533)","binding, competition with immobilised ligand",,,0.00445 µM
C[n+]1cn(C2OC(COP(=O)(O)OP(=O)([O-])OP(=O)(O)OCC3OC(n4cnc5c(=O)[nH]c(N)nc54)C(O)C3O)C(O)C2O)c2nc(NCc3ccc(Cl)cc3)[nH]c(=O)c21 (stereo not drawn),Eif4e,differential scanning fluorimetry,,,3.1 µM
Cc1cn([C@H]2C[C@H](O)[C@@H](COP(=O)(O)OP(=O)(O)C(F)(F)P(=O)(O)O)O2)c(=O)[nH]c1=O,POLB I260M,"substrate, single turnover kinetics",,37 °C,67.2 ± 25.3 µM
CC[C@H](C)[C@@H]1NC(=O)[C@H](C)NC(=O)[C@H](C)NC(=O)[C@H]([C@@H](C)O)NC(=O)[C@H](Cc2ccccc2)NC(=O)[C@@H]2CSSC[C@@H]3NC(=O)[C@H](C(C)C)NC(=O)[C@H](C)NC(=O)[C@H](CO)NC(=O)[C@H](CCCCN)NC(=O)[C@@H]4CSSC[C@H](NC(=O)[C@H](CO)NC(=O)[C@H](CCC(=O)O)NC(=O)CNC(=O)[C@H](CSSC[C@H](NC(=O)CNC1=O)C(=O)N[C@@H](CO)C(=O)N4)NC(=O)[C@@H]1CCCN1C(=O)[C@H](Cc1ccccc1)NC(=O)CNC(=O)[C@H](CC(N)=O)NC(=O)[C@H](CCCCN)NC(=O)[C@H](Cc1ccc(O)cc1)NC3=O)C(=O)N[C@@H](C(C)C)C(=O)N[C@@H](Cc1ccc(O)cc1)C(=O)N[C@@H](CC(C)C)C(=O)N1CCC[C@H]1C(=O)N2,POPC/POPE lipid membrane,"membrane binding, surface plasmon resonance",POPC/POPE 80:20 vesicles,pH 7.4,4.8 ± 0.34 µM
NS(=O)(=O)c1c(F)c(NCCc2ccc(O)cc2)c(SCCO)c(NC2CCCCCCCCCCC2)c1F,"CA2 (Homo sapiens, UniProt P00918, A65S/F130A/I91T/L203N/N67K/V134S)",,,pH 7,0.22 µM
Nc1nc2c(ncn2[C@H]2C[C@H](O)[C@@H](COP(=O)(O)OP(=O)(O)[C@H](F)P(=O)(O)O)O2)c(=O)[nH]1,"DNA polymerase beta (POLB, Homo sapiens, UniProt P06746)","substrate, quench-flow kinetics",,"pH 8.0, 37 °C, misincorporation opposite T in gapped DNA",740 ± 140 µM
CNCCNC(=O)CN1C(=O)Cc2c([nH]c3ccc(Br)cc23)-c2ccc(Cl)cc21,"Trypanothione synthetase (Leishmania infantum, UniProt A4I2Z3)",isothermal titration calorimetry,,together with: glutathione 2 mM,1.9 µM
O=C(NCc1c(F)cccc1Cl)c1csc(-c2n[nH]c3ccccc23)c1,"E3 ubiquitin-protein ligase NEDD4 (Homo sapiens, UniProt P46934)","binding, MST",,,0.0254 µM
CC(=O)N[C@@H]1[C@@H](O[C@@H]2O[C@H](C(=O)O)[C@@H](O[C@@H]3O[C@H](COS(=O)(=O)O)[C@@H](OS(=O)(=O)O)[C@H](O[C@@H]4O[C@H](C(=O)O)[C@@H](OS(=O)(=O)O)[C@H](OS(=O)(=O)O)[C@H]4OS(=O)(=O)O)[C@H]3NC(C)=O)[C@H](OS(=O)(=O)O)[C@H]2OS(=O)(=O)O)[C@H](OS(=O)(=O)O)[C@@H](COS(=O)(=O)O)O[C@H]1SCCOCCOCCSSCCOCCOCCS[C@@H]1O[C@H](COS(=O)(=O)O)[C@@H](OS(=O)(=O)O)[C@H](O[C@@H]2O[C@H](C(=O)O)[C@@H](O[C@@H]3O[C@H](COS(=O)(=O)O)[C@@H](OS(=O)(=O)O)[C@H](O[C@@H]4O[C@H](C(=O)O)[C@@H](OS(=O)(=O)O)[C@H](OS(=O)(=O)O)[C@H]4OS(=O)(=O)O)[C@H]3NC(C)=O)[C@H](OS(=O)(=O)O)[C@H]2OS(=O)(=O)O)[C@H]1NC(C)=O,"Interleukin-8 (CXCL8, Homo sapiens, UniProt P10145)",isothermal titration calorimetry,,"25 °C, protein 10 µM",0.016 µM
CC[C@H](C)[C@H](NC(=O)[C@H](CC(C)C)NC(=O)[C@H](CCCNC(=N)N)NC(=O)c1ccc(CN2CCN(C)CC2)cc1)C(=O)N[C@@H](Cc1ccccc1)C(N)=O,"Cyclin-A2 (CCNA2, Homo sapiens, UniProt P20248)","binding, tryptophan fluorescence titration",,expressed without chaperones,3.55 ± 0.361 µM
C[n+]1cn([C@@H]2O[C@H](COP(=O)(O)OP(=O)([O-])OP(=O)(O)OC[C@H]3O[C@@H](n4cnc5c(=O)[nH]c(N)nc54)[C@H](O)[C@@H]3OC(=O)NCCCCCCN)[C@@H](O)[C@H]2O)c2nc(N)nc(O)c21,Eif4e,"cap analogue binding, pyrene fluorescence competition",,20 °C,0.485 ± 0.092 µM
CCOc1ccc(-c2nc3cc(-c4nc5cc(N6CCN(C)CC6)ccc5[nH]4)ccc3[nH]2)cc1,HIV-1 SL4 RNA stem-loop,"binding, ESI-FTMS titration",,pH 7.5,171 ± 17.9 µM
O=C(O)C1CC1C(=O)c1ccc(Cl)c(Cl)c1 (stereo not drawn),"Kynurenine 3-monooxygenase, residues 1-394 (Saccharomyces cerevisiae, UniProt P38169, R83A)","binding, flavin fluorescence",,"25 °C, R83A variant",3.1 ± 0.2 µM
